Measurements from different studies.
Parts stem from different laboratories: compare values within a part only. Positions count from the first letter of the parent shown.

Sample 1
Target: CCND1, cyclin fold, Cln2 fusion (human)
Method: yeast growth competition, sequencing
Matrix: yeast
Setting: strong parent motif
Baseline: not given
Direction: higher = stronger binding
Parent: PKN2 docking peptide (human); VSAVRKLDFSDTM
Substitution	normalised enrichment score
VSAVRKGDFSDTM [L7G]	-0.0297
VSAVAKLDFSDTM [R5A]	1.95
VSAVRKLDFSDSM [T12S]	5.36
VNAVRKLDFSDTM [S2N]	4.81
VSAVRKLDFSDCM [T12C]	5.11
VSAVRKLDFSDYM [T12Y]	5.78
VSAKRKLDFSDTM [V4K]	5.12
VSAVRKLVFSDTM [D8V]	3.64
VSQVRKLDFSDTM [A3Q]	0.394
VSAVRKLMFSDTM [D8M]	1.55

Sample 2
Target: ABI1, truncated, D143A, DHFR fusion (Arabidopsis thaliana)
Method: DHFR PCA, deep sequencing
Matrix: yeast
Setting: methotrexate growth selection, single substitutions
Together with: (+)-ABA 1.4 µM
Baseline: wild-type fitted maximum
Direction: higher = stronger binding
Parent: PYL1, truncated, DHFR fusion (Arabidopsis thaliana); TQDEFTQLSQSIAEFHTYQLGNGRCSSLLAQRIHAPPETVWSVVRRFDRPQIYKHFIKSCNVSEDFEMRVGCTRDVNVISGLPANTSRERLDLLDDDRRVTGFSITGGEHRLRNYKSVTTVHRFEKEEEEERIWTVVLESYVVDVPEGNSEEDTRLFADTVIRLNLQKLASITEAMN
Substitution	relative binding score [%]
T154E	-14.1
V143A	8.12
V145M	-23.3
S80F	39.8
E128S	65.2
P83S	19.5
P37F	-3.67

Sample 3
Target: Sal-like protein 4, full length isoform A (SALL4, Homo sapiens, UniProt Q9UJQ4, residues 1-1053)
Chain of UniProt Q9UJQ4 (whole entry, looked up): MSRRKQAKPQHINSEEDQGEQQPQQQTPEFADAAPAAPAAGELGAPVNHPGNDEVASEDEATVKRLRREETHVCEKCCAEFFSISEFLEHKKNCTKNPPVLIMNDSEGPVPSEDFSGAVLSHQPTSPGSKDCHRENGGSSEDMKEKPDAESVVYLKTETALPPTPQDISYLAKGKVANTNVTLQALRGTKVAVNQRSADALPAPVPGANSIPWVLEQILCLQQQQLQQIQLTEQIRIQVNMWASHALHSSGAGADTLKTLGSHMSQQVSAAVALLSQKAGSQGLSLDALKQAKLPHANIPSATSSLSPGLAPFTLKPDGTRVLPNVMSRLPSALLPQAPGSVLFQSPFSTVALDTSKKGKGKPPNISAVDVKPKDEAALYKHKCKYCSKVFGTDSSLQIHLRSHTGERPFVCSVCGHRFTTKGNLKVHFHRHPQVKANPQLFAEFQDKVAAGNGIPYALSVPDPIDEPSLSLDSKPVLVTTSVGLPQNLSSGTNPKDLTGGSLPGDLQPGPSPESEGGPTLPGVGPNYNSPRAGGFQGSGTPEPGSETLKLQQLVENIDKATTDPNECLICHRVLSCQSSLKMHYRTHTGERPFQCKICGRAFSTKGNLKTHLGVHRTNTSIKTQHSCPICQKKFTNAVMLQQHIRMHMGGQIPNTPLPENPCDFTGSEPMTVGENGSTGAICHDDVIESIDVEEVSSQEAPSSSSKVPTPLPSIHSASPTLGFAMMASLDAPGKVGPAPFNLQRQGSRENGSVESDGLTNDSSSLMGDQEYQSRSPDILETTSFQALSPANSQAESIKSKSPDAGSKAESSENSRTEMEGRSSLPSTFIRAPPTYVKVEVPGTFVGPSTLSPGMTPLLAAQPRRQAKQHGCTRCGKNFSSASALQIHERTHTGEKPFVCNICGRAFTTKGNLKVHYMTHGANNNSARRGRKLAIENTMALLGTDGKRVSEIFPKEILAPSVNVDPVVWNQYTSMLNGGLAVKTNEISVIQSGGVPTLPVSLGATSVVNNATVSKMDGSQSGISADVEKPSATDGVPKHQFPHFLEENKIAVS
Method: universal PBM
Form: double-stranded DNA, one strand shown
Matrix: in vitro
Tested at: 600 nM
Setting: 8-mer, flanks averaged, mean of replicates
Direction: higher = stronger binding
Oligonucleotide	E-score
CCGGGTGC	-0.356
ACGCTATG	0.0295
ACATTTAA	0.296
CCATATCG	0.149
CGACATCC	-0.218
CCAGGCTC	-0.234

Single results of other studies
Substance	target	test	system	conditions	scale	quantity	value
PhoQ, residues 284 288 289 292 302 303 SVTLVV	PhoP, residues 12 14 15 18 19 HLGGL (Escherichia coli, UniProt P23836)	Sort-seq, measured: YFP reporter	E. coli	PhoQ-PhoP variant library, together with: 10 µM Mg2+	baseline: high Mg2+ state, higher = stronger signaling	fold induction	0.226

Excerpt of the above (sample 1):
Substitution	normalised enrichment score
VSAVRKLMFSDTM [D8M]	1.55
